Measurements of several laboratories.
Each line is one published result; not all experiments were run side by side. “And” joins repeats or separate records; there may be more than shown. ± gives the spread as reported.
ALB: Albumin (ALB, Homo sapiens, UniProt P02768)
KRAS G12D GDP-bound: GTPase KRas, GDP-bound (KRAS, Homo sapiens, UniProt P01116, G12D)
uncharacterized protein: uncharacterized protein (Spodoptera exigua, UniProt F1CEY0)
Grin1 with GluN2D: Glutamate receptor ionotropic, NMDA 1, with GluN2D (Grin1, Rattus norvegicus, UniProt P35439)
UniProt Q64663, sequence (whole entry, unmodified, looked up): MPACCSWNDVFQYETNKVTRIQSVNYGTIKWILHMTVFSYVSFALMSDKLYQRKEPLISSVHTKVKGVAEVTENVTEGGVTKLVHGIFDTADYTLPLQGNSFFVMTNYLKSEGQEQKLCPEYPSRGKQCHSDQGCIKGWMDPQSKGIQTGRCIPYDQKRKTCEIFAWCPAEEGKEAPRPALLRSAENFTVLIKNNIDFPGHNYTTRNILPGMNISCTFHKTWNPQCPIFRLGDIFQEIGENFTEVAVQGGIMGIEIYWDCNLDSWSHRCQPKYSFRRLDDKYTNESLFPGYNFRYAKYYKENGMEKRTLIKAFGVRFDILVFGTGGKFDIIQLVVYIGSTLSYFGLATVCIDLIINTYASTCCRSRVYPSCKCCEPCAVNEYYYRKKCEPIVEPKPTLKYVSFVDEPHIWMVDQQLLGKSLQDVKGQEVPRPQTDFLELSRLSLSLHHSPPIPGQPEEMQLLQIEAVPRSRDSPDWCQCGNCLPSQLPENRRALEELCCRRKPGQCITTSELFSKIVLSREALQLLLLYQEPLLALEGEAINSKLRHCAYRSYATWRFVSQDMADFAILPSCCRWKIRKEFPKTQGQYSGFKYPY
UniProt Q16774, sequence (whole entry, unmodified, looked up): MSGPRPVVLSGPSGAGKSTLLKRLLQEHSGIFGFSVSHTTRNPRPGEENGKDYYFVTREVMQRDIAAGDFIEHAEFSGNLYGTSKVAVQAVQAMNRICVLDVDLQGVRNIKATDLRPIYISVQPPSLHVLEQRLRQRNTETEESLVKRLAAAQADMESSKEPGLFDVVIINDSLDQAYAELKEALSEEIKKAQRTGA
UniProt P00441, sequence (whole entry, unmodified, looked up): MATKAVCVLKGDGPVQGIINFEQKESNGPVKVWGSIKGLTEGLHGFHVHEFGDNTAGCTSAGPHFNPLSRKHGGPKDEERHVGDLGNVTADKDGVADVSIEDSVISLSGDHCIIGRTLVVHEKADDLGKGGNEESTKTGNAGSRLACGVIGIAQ
UniProt Q13164, sequence (whole entry, looked up): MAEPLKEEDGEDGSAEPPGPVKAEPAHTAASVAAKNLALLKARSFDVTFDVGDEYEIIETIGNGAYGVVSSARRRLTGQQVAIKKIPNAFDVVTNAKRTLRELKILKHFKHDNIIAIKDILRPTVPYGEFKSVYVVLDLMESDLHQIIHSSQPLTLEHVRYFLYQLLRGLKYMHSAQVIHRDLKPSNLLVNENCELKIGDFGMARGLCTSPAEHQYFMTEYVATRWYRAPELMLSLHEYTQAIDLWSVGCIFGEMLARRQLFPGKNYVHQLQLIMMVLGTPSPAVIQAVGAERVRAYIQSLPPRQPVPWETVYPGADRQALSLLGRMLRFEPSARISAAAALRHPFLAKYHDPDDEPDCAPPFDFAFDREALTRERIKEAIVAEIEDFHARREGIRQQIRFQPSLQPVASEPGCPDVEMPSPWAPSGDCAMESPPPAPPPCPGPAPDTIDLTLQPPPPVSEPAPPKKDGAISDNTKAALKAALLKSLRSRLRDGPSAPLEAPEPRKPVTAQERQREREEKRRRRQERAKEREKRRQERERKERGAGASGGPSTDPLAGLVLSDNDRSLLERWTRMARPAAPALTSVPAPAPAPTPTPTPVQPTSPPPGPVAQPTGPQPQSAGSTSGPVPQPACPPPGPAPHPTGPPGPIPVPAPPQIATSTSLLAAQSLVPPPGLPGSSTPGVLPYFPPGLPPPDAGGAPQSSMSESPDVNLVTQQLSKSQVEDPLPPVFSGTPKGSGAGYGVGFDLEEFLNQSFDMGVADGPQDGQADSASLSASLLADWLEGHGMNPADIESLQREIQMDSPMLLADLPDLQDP
UniProt Q8NDV2, sequence (whole entry, looked up): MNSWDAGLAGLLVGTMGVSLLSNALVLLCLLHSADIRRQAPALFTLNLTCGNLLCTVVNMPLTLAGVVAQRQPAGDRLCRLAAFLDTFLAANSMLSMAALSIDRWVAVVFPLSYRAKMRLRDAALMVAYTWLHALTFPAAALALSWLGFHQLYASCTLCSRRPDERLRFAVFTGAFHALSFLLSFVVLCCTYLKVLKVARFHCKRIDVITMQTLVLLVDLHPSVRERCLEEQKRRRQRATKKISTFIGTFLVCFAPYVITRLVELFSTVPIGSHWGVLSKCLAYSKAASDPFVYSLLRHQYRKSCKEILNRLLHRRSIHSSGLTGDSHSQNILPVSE
UniProt Q9X6J6, sequence (whole entry, unmodified, looked up): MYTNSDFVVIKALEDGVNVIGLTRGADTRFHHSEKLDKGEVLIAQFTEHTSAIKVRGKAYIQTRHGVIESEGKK
UniProt P51575, sequence (whole entry, unmodified, looked up): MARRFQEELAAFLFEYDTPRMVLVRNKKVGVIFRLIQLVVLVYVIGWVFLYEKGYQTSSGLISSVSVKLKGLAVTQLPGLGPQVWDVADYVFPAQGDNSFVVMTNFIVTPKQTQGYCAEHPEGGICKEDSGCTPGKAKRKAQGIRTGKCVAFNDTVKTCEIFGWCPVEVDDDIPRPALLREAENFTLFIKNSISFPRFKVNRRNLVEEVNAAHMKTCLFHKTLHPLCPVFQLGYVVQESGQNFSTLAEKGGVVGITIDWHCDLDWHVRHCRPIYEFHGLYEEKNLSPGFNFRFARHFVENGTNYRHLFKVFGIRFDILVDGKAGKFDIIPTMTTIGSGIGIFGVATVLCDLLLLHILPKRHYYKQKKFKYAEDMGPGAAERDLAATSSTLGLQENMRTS
UniProt Q13224, sequence (whole entry, looked up): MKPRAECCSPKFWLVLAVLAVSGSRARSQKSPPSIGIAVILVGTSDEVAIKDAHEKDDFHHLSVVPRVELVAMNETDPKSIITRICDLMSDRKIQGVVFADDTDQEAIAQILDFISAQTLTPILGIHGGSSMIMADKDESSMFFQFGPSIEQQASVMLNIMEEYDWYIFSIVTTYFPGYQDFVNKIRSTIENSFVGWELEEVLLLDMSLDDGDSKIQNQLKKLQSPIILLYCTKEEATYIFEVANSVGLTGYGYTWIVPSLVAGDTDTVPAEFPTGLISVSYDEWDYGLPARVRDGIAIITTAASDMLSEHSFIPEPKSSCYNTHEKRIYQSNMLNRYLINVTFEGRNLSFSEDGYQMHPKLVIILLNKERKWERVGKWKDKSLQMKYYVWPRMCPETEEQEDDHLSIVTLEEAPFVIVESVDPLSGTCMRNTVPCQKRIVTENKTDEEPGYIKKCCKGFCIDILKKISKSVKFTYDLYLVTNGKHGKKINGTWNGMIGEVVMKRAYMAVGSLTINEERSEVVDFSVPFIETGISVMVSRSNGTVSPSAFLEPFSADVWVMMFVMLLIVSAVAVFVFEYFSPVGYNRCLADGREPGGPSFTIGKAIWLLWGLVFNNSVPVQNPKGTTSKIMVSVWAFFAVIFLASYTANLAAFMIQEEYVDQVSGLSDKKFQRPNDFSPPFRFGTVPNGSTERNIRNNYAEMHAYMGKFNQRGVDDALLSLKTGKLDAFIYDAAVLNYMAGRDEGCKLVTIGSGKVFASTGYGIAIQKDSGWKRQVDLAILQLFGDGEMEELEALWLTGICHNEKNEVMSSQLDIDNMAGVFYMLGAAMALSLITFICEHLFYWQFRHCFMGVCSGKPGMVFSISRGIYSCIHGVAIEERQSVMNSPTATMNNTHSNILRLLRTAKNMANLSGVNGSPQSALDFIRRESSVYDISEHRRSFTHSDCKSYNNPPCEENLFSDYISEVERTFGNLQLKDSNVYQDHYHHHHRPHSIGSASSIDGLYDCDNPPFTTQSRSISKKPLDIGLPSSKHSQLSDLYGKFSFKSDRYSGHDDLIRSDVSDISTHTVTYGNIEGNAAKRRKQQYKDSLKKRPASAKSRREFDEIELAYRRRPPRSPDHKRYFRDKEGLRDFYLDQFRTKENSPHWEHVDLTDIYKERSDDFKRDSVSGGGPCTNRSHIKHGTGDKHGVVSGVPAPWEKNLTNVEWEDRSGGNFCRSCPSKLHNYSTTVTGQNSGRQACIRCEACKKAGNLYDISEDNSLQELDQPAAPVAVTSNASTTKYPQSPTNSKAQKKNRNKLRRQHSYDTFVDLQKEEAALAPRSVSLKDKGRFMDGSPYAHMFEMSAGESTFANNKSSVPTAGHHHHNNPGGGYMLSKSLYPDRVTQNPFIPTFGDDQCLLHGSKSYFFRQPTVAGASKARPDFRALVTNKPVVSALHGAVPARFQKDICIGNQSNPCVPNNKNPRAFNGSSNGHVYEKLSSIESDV

O=C(COP(=O)(O)O)[C@@H](O)[C@H](O)[C@H](O)COP(=O)(O)O: “thermal stability ratio” 0.7 and 0.538 and 0.389 (PRPF8 (Homo sapiens, UniProt Q6P2Q9); thermal proteome profiling; HepG2 cell lysate; concentration not given, 57 over 37 °C; relative to: compound over control).
For O=S(=O)(O)C1CCNCC1, “normalised MST signal” read -0.00255 (SLC6A6 (Homo sapiens, UniProt P31641, G62A); binding, microscale thermophoresis; 250 µM, room temperature, with: 50 nM labelled protein; higher = more binding).
With N[C@H](CNC(=O)c1ccc(-c2ccccc2Br)s1)C(=O)O the Hill slope was 1.7 (Glutamate receptor ionotropic, NMDA 1, with GluN2C (Grin1, Rattus norvegicus, UniProt P35439, V689I); rat; with: glutamate 300 µM).
CSCC[C@H](N)C(=O)Nc1ccc2ccccc2c1 gave a Km of 3.3 µM (Puromycin-sensitive aminopeptidase (Rattus norvegicus, UniProt F1M9V7); substrate).
For Cc1occc(=O)c1[O-].[Cl-].[W+4].c1cc[cH-]c1.c1cc[cH-]c1, “Stern-Volmer quenching constant” read 15100 L/mol (ALB; fluorescence quenching; 310 K).
CC[C@H](C)[C@@H]1NC(=O)[C@H](CC2CCCCC2)NC(=O)[C@H](CC(C)C)NC(=O)[C@@H]2CCCN2C(=O)[C@@H](NC(=O)[C@H](CCCNC(=N)N)NC(=O)[C@H](CCCNC(=N)N)NC(C)=O)CSSC[C@@H](C(=O)N[C@@H](CCCNC(=N)N)C(=O)N[C@@H](CCCNC(=N)N)C(N)=O)NC(=O)[C@H](C(C)C)NC(=O)[C@@H]2CCCN2C(=O)[C@H](CC(=O)O)NC(=O)[C@H](Cc2ccc(O)cc2)NC(=O)[C@H](CO)NC1=O: “lowest bound protein concentration” 0.08 to 0.16 µM (KRAS G12D GDP-bound; affinity selection mass spectrometry; mixture library 1, with: protein titration up to 5 µM; lower is stronger binding).
Cc1cc(-c2ccnc3[nH]cc(F)c23)cc(F)c1[C@@]1(O)[C@H](C)CN(C2CCS(=O)(=O)CC2)C[C@@H]1C: “probe labelling inhibition” 10.1% (JAK1 (Homo sapiens, UniProt P23458); ATP/ADP probe binding, KiNativ; HEK293T lysate; 0.1 µM, activation loop domain 2).
The normalized current of Nc1ncnc2c1ncn2[C@@H]1O[C@H](COP(=O)(O)OP(=O)(O)OP(=O)(O)O)[C@@H](O)[C@H]1O is reported as 0.736 and 0.65 and 0.651 (P2X purinoceptor 7 (P2rx7, Rattus norvegicus, UniProt Q64663, I214A/Q143A/R125A); ion current, agonist, two-electrode voltage clamp; Xenopus oocytes; 300 µM).
For N[C@@H](Cc1c[nH]c2ccccc12)C(=O)O, the ΔH was -11.47 ± 0.05 kcal/mol (Transcription attenuation protein MtrB (mtrB, Geobacillus stearothermophilus, UniProt Q9X6J6); isothermal titration calorimetry; 25 °C, one-site model).
Nc1nc2c(ncn2[C@@H]2O[C@H](COP(=O)(O)OP(=O)(O)O)[C@@H](OP(=O)(O)OP(=O)(O)O)[C@H]2O)c(=O)[nH]1 has a binding stoichiometry of 2.02 ± 0.03 (Adenylosuccinate synthetase (purA, Escherichia coli, UniProt P0A7D4); ITC; concentration not given).
[O-][S+]1CCCCS1 (centres unmarked) gave a target engagement of 4.52% and 6% (SOD1 (Homo sapiens, UniProt P00441, G94A); intact protein LC-MS; SOD1 G93A transgenic mice, whole blood; intravenous, 10 mg/kg, 168 h).
For CC1CCC(C(C)C)C(O)C1 (centres unmarked), the relative fluorescence was 78.1% (uncharacterized protein; binding, competitor, fluorescence displacement; 20 µM, pH 7.4, with: 1-NPN 20 µM; relative to: 1-NPN alone).
N[C@H](CNC(=O)c1ccc(-c2ccccc2)s1)C(=O)O has a Hill slope of 2.45 (Grin1 with GluN2D; with: glutamate 300 µM).
CCCCCCO gave a relative fluorescence of 65.7% (uncharacterized protein; binding, 1-NPN competitive displacement; protein 2.0 µM, with: 1-NPN 20 µM; relative to: 1-NPN without compound, lower = stronger binding).
For Nc1ncnc2c1ncn2[C@@H]1O[C@H](COP(=O)(O)OP(=O)(O)OP(=O)(O)O)[C@@H](O)[C@H]1O, the Km was 1800 ± 100 µM (Hexokinase-3 (HK3, Homo sapiens, UniProt P52790, E254A); substrate; mutant E254A, with: glucose 0.5 mM).
N[C@H](CNC(=O)c1cc(Br)c(-c2ccccc2Br)s1)C(=O)O gave a Hill slope of 1.43 (Grin1 with GluN2D; with: glutamate 300 µM).
The Km of CC(=O)NCCCC[C@H](NC(=O)CNC(=O)[C@H](CCCNC(=N)N)NC(C)=O)C(=O)Nc1ccc2c(C)cc(=O)oc2c1 is reported as 56 ± 9 µM (human Y225F/Y782F mutant enzyme; substrate, fluorogenic).
For O=S(=O)(O)O, the reaction velocity was 0.0291 µM/s and 0.0306 µM/s and 0.027 µM/s (GUK1 (Homo sapiens, UniProt Q16774); enzyme activity, NADH-coupled; 1 mM, with: ATP 15.62 µM).
With Nc1ncnc2c1ncn2[C@@H]1O[C@H](COP(=O)(O)OP(=O)(O)OP(=O)(O)O)[C@@H](O)[C@H]1O the kcat was 6 ± 2 s⁻¹ (CKMT1A (Homo sapiens, UniProt P12532, H99A); substrate, ADP-Glo luminescence; pH 8.5, forward reaction, H61A mutant, with: second substrate in excess).
CCCCCCCCCCC has a relative fluorescence of 60.9% (uncharacterized protein; binding, competitor, fluorescence displacement; 20 µM, pH 7.4, with: 1-NPN 20 µM; relative to: 1-NPN alone).
With CC[C@@H]1[C@H](F)C(=O)N[C@@H]1COc1nccc2cc(C(N)=O)c(OC)cc12 the inhibition was -4.2% (MAPK7 (Homo sapiens, UniProt Q13164); ATP-site probe binding, ActivX profiling, item: Erk5; THP-1 cell lysate; 0.01 mM, Lys2 site).
COc1cc(Nc2ncc3c(n2)-c2ccc(Cl)cc2C(c2c(F)cccc2OC)=NC3)ccc1C(=O)O has a remaining activity of 95% (PDGFRA T674I; kinase activity; 1 µM).
Nc1ncnc2c1ncn2[C@@H]1O[C@H](COP(=O)(O)CP(=O)(O)OP(=O)(O)O)[C@@H](O)[C@H]1O has a calcium influx of 100% (P2X purinoceptor 1 (P2RX1, Homo sapiens, UniProt P51575, D97A); calcium influx; 10 µM; relative to: ionomycin response).
Under “lowest bound protein concentration”, CC[C@H](C)[C@@H]1NC(=O)[C@H](Cc2ccc(-c3ccccc3)cc2)NC(=O)[C@H](CC(C)C)NC(=O)[C@@H]2CCCN2C(=O)[C@@H](NC(=O)[C@H](CCCNC(=N)N)NC(=O)[C@H](CCCNC(=N)N)NC(C)=O)CSSC[C@@H](C(=O)N[C@@H](CCCNC(=N)N)C(=O)N[C@@H](CCCNC(=N)N)C(N)=O)NC(=O)[C@H](CC2CCCCC2)NC(=O)[C@@H]2C[C@@H](OCC(=O)O)CN2C(=O)[C@H](CC(=O)O)NC(=O)[C@H](Cc2ccc(O)cc2)NC(=O)[C@H](CO)NC1=O is recorded as 0.08 µM (KRAS G12D GDP-bound; affinity selection mass spectrometry; mixture library 4, with: protein titration up to 2.5 µM; lower is stronger binding).
CC[C@H](C)[C@@H]1NC(=O)[C@H](CO)NC(=O)[C@@H]2CCCN2C(=O)[C@@H](NC(=O)CN)CSSC[C@@H]2NC(=O)CNC(=O)[C@H](C)NC(=O)[C@H](CC(C)C)NC(=O)[C@@H]3CSSC[C@@H](C(=O)NCC(=O)O)NC(=O)[C@H](Cc4ccccc4)NC(=O)CNC(=O)[C@H](CC(N)=O)NC(=O)[C@@H]4CCCN4C(=O)CNC(=O)[C@H](CSSC[C@H](NC(=O)[C@H](CCCNC(=N)N)NC(=O)[C@H](Cc4c[nH]cn4)NC(=O)[C@H](CCCNC(=N)N)NC(=O)[C@H](CCCCN)NC(=O)[C@H](C(C)C)NC(=O)[C@H](CCCNC(=N)N)NC(=O)[C@H](CC(N)=O)NC1=O)C(=O)N[C@@H](CCCCN)C(=O)N[C@@H](CCC(N)=O)C(=O)N[C@@H](CC(=O)O)C(=O)N[C@@H](CO)C(=O)N[C@@H](CC(=O)O)C(=O)N3)NC(=O)[C@H](C(C)C)NC2=O has a kon of 2.72e+06 ± 630000 M⁻¹ s⁻¹ (Low-density lipoprotein receptor-related protein 6, E1 domain (LRP6, Homo sapiens, UniProt O75581); binding, SPR; pH 7.5).
Under “Gibbs free energy”, COc1cc(-c2[o+]c3cc(O)cc(O)c3cc2O[C@@H]2O[C@H](CO)[C@@H](O)[C@H](O)[C@H]2O)cc(O)c1O is recorded as -6.07 kcal/mol (ALB; binding, fluorescence quenching; 20 °C).
For Nc1nc2c(ncn2[C@@H]2O[C@H](COP(=O)(O)O)[C@@H](O)[C@H]2O)c(=O)[nH]1, the reaction rate was 0.619 s⁻¹ and 2.62 s⁻¹ and 1.68 s⁻¹ (GUK1 (Homo sapiens, UniProt Q16774, Y81A); enzyme activity, NADH-coupled; 31.25 µM).
For O=c1nc(SCc2cc(F)cc(C(F)(F)F)c2)nc(SCc2csc3ccc(Cl)cc23)[nH]1, “mean linear DNA” read 0% (TOP2A (Homo sapiens, UniProt P11388); DNA cleavage; 1.95 µM).
CC1(C)CC2(C)OC(=O)NC2(C)c2ccccc21 (centres unmarked) — result for “log fold enrichment”: 0.0569 (DNA mismatch repair protein Msh6 (Homo sapiens, UniProt P52701); binding, affinity selection mass spectrometry; relative to: other proteins in batch).
CCOCc1nc(O)c(-c2nnc(Cc3ccc(Cl)cn3)o2)c(O)c1-c1c(OC)cccc1OC has an Emax of 101 ± 5% (Apelin receptor (APLNR, Homo sapiens, UniProt P35414); β-arrestin1 activation, agonist, BRET biosensor; HEK293).
CCN1CCC[C@H]1CNC(=O)c1c(O)c(Cl)cc(Cl)c1OC: “log2 fold change” 0.103 (G-protein coupled receptor 26 (GPR26, Homo sapiens, UniProt Q8NDV2); β-arrestin recruitment, TANGO luminescence, item: GPR26; concentration not given; relative to: basal luminescence).
COc1cc(-c2cncc3c2CN(C)Cc2cc(N4CCNCC4)ccc2-3)cc(OC)c1OC gave a remaining activity of 96% (EIF2AK1 (Homo sapiens, UniProt Q9BQI3); kinase activity; 1 µM, human enzyme, with: ATP 10 µM; relative to: DMSO control).
The selectivity ratio of COc1cc(NC(=O)c2cnn(-c3ccc([N+](=O)[O-])cc3)c2C(F)(F)F)cc(OC)c1 is reported as 0.3 (PTGS2 (Homo sapiens, UniProt P35354); enzyme activity, inhibitor; relative to: COX-1 IC50 over COX-2 IC50).
The remaining binding of C=CC(=O)N1CCC(COCC(=O)N2CCN(c3nc(-c4cnc(N)nc4C(F)F)nc(N4CCOC[C@@H]4C)n3)CC2)CC1 is reported as 100% (FGFR3 (Homo sapiens, UniProt P22607, G697C); KINOMEscan; 1 µM).
C[C@H](CCC(C)(C)O)[C@H]1CC[C@H]2[C@@H]3CC=C4C[C@@](C)(O)CC[C@]4(C)[C@H]3CC[C@]12C gave a current potentiation of 208 ± 8.6% (Glutamate NMDA receptor; GRIN1/GRIN2B (GRIN1/GRIN2B, Homo sapiens, UniProt Q05586+Q13224); ion current, positive allosteric modulator, two-electrode voltage clamp; Xenopus oocytes; 10 µM, wild type, with: 100 µM glutamate and glycine; relative to: absence of compound).

A few entries again:
For Cc1occc(=O)c1[O-].[Cl-].[W+4].c1cc[cH-]c1.c1cc[cH-]c1, “Stern-Volmer quenching constant” read 15100 L/mol (ALB; fluorescence quenching; 310 K).
CC[C@H](C)[C@@H]1NC(=O)[C@H](CC2CCCCC2)NC(=O)[C@H](CC(C)C)NC(=O)[C@@H]2CCCN2C(=O)[C@@H](NC(=O)[C@H](CCCNC(=N)N)NC(=O)[C@H](CCCNC(=N)N)NC(C)=O)CSSC[C@@H](C(=O)N[C@@H](CCCNC(=N)N)C(=O)N[C@@H](CCCNC(=N)N)C(N)=O)NC(=O)[C@H](C(C)C)NC(=O)[C@@H]2CCCN2C(=O)[C@H](CC(=O)O)NC(=O)[C@H](Cc2ccc(O)cc2)NC(=O)[C@H](CO)NC1=O: “lowest bound protein concentration” 0.08 to 0.16 µM (KRAS G12D GDP-bound; affinity selection mass spectrometry; mixture library 1, with: protein titration up to 5 µM; lower is stronger binding).
Cc1cc(-c2ccnc3[nH]cc(F)c23)cc(F)c1[C@@]1(O)[C@H](C)CN(C2CCS(=O)(=O)CC2)C[C@@H]1C: “probe labelling inhibition” 10.1% (JAK1 (Homo sapiens, UniProt P23458); ATP/ADP probe binding, KiNativ; HEK293T lysate; 0.1 µM, activation loop domain 2).
The normalized current of Nc1ncnc2c1ncn2[C@@H]1O[C@H](COP(=O)(O)OP(=O)(O)OP(=O)(O)O)[C@@H](O)[C@H]1O is reported as 0.736 and 0.65 and 0.651 (P2X purinoceptor 7 (P2rx7, Rattus norvegicus, UniProt Q64663, I214A/Q143A/R125A); ion current, agonist, two-electrode voltage clamp; Xenopus oocytes; 300 µM).
For N[C@@H](Cc1c[nH]c2ccccc12)C(=O)O, the ΔH was -11.47 ± 0.05 kcal/mol (Transcription attenuation protein MtrB (mtrB, Geobacillus stearothermophilus, UniProt Q9X6J6); isothermal titration calorimetry; 25 °C, one-site model).
